# Published values pooled from the literature.
# Compare with care: the assays were run in different laboratories. Values joined by “and” are separate records of one study, mostly repeats; a detail may differ. ± marks the error that the study gave.
# Sequence of UniProt P47898 (whole entry, looked up): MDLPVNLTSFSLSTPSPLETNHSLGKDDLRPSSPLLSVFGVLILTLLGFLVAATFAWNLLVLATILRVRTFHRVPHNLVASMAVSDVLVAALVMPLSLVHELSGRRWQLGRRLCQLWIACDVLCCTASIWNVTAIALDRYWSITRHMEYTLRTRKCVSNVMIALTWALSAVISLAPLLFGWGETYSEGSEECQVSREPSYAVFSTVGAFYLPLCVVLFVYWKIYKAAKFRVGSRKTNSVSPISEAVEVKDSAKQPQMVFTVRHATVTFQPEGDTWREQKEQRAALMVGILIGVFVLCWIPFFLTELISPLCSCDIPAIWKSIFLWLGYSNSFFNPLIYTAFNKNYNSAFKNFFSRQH
# Sequence of UniProt P41252 (whole entry, looked up): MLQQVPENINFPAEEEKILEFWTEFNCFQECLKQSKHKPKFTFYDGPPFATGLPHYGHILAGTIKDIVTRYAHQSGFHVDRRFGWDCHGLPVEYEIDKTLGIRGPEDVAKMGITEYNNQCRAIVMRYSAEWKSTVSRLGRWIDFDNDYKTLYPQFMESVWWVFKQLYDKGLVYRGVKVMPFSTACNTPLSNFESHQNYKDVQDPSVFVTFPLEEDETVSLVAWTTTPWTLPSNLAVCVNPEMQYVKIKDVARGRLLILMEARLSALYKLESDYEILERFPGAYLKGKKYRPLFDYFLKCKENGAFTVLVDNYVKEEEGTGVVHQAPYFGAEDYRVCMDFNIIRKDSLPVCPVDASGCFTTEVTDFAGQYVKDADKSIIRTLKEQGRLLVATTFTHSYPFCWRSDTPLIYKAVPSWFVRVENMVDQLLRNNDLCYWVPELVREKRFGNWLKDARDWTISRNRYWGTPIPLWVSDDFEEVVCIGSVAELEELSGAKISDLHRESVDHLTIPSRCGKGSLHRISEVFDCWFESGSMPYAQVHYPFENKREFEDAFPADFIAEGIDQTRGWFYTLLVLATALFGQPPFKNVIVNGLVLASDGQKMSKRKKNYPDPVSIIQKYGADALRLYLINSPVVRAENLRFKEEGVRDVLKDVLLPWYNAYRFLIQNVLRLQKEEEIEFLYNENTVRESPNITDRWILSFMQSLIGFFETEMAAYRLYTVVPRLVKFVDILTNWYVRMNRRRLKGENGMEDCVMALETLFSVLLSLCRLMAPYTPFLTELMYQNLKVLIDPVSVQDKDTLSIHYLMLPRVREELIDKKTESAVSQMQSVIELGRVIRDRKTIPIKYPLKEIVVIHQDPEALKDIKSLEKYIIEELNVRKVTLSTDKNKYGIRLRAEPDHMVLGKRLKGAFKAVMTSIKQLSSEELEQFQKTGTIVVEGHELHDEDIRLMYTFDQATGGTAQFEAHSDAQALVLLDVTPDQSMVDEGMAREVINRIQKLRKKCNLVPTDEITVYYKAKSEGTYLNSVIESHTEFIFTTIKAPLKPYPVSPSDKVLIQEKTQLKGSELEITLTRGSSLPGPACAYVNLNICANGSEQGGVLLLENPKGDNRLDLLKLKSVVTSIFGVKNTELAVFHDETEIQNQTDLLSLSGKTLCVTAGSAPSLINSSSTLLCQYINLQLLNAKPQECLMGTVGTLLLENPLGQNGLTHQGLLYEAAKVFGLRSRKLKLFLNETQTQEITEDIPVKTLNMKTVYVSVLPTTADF
SMILES,tested on,assay,system,setting,scale,quantity,result
C[C@]1(CO)Cc2ncn(-c3ccc(C#N)c(Cl)c3)c2C(=O)O1,,,"human, Chinese",20 mg single dose,,subjects with drug-related dizziness,0%
CO[C@H]1C[C@@H]2CC[C@@H](C)[C@@](O)(O2)C(=O)C(=O)N2CCCC[C@H]2C(=O)O[C@H]([C@H](C)C[C@@H]2CC[C@@H](OC(=O)NCCOCCOCCOCCOCCOCCOCCOCCOCCC(=O)N3CCc4cc(Cn5nc(-c6ccc7oc(N)nc7c6)c6c(N)ncnc65)ccc4C3)[C@H](OC)C2)C[C@@H](O)[C@H](C)/C=C(\C)[C@@H](O)[C@@H](OC)C(=O)[C@H](C)C[C@H](C)/C=C/C=C/C=C/1C,,dose-escalation trial,patients with advanced solid tumours,"intravenous, all doses weekly, any grade",,AEs leading to dose reduction,10.5%
COc1ccc(N2C(=O)N(c3c(C)cccc3Cl)Cc3cnc(Nc4ccc(C5CCN(C)CC5)cc4OC)nc32)nc1,"Hepatocyte growth factor receptor (MET, Homo sapiens, UniProt P08581)",kinase activity,,0.5 µM,,inhibition,5%
COc1cc2c(Oc3ccc4[nH]c(C)cc4c3F)ccnc2cc1OCC1(N)CC1,,,paediatric recurrent refractory sarcoma,8 mg/kg,,grade 1 or 2 ALT elevation,13.3%
CC[C@H](C)[C@H](NC(=O)[C@H](Cc1ccccc1)NC(=O)[C@H](CCC(=O)O)NC(=O)[C@H](CCCNC(=N)N)NC(=O)[C@H](C)NC(=O)[C@H](C)NC(=O)[C@H](CCC(N)=O)NC(=O)[C@H](CCC(=O)O)NC(=O)[C@H](CCC(=O)O)NC(=O)[C@H](CC(C)C)NC(=O)[C@H](Cc1ccc(O)cc1)NC(=O)[C@H](CO)NC(=O)[C@H](CO)NC(=O)[C@@H](NC(=O)[C@H](CC(=O)O)NC(=O)[C@H](CO)NC(=O)[C@@H](NC(=O)[C@H](Cc1ccccc1)NC(=O)[C@@H](NC(=O)CNC(=O)[C@H](CCC(=O)O)NC(=O)[C@H](C)NC(=O)CCc1c[nH]cn1)[C@@H](C)O)[C@@H](C)O)C(C)C)C(=O)N[C@@H](C)C(=O)N[C@@H](Cc1c[nH]c2ccccc12)C(=O)N[C@@H](CC(C)C)C(=O)N[C@H](C(=O)N[C@@H](CCCNC(=N)N)C(=O)NCC(=O)N[C@@H](CCCNC(=N)N)C(=O)N[C@@H](CCCCNC(=O)COCCOCCNC(=O)COCCOCCNC(=O)CC[C@H](NC(=O)CCCCCCCCCCCCCCCCC(=O)O)C(=O)O)C(=O)NCC(=O)NCC(=O)N[C@@H](CO)C(=O)N[C@@H](CCCCNc1c(NCCCCCN(O)C(=O)CCC(=O)NCCCCCN(O)C(=O)CCC(=O)NCCCCCN(O)C(C)=O)c(=O)c1=O)C(=O)O)C(C)C [zirconium-89 labelled],,,"rat, stomach","iv, 3 nmol/kg, 4 h, ex vivo",,tissue uptake,0.34 %ID/g
N#C[C@H](O[C@@H]1O[C@H](CO)[C@@H](O)[C@H](O)[C@H]1O)c1ccccc1,,,"Sprague Dawley rat, plasma","oral, 3.34 g lyophilized powder/kg, low dose",,Tmax,49.2 ± 40.8 min
CC[C@H](C)CCCCC(=O)N[C@@H](CCN)C(=O)N[C@H](C(=O)N[C@@H](CCN)C(=O)N[C@H]1CCNC(=O)[C@H]([C@@H](C)O)NC(=O)[C@H](CCN)NC(=O)[C@H](CCN)NC(=O)[C@H](CC(C)C)NC(=O)[C@@H](Cc2ccccc2)NC(=O)[C@H](CCN)NC1=O)[C@@H](C)O,,,"critically ill survivors, plasma","intravenous, 2.1 mg/kg/day, median",,Cmax steady state,7800 ng/mL
COc1cc2ncnc(Nc3cccc(Cl)c3)c2cc1OC,HaCaT,,,"0.137 µM, 60 h",,viability,99% and 103% and 98%
C=CC(=O)Nc1cc(Nc2nccc(Nc3cc(Cl)c(F)cc3C(C)(C)O)n2)c(OC)cc1N1CC[C@@H](N(C)C)C1,,,human patients,"oral, 400 mg, treatment-emergent adverse events",,patients with mouth ulceration,20%
O=C(Nc1ccccc1)C1CCN(C(=O)Oc2cccnc2)CC1,,,healthy women,"oral, 60 mg, 7 days",,adverse event Nausea,0%
CCc1ccc(CC/C=C/c2ccc3c(c2)C(=O)CC3)cc1,,,"Sprague-Dawley rat, female, serum","oral, 450 mg/kg/day, 14 days",,total protein,58.8 g/L
COc1cc(Nc2ncc(F)c(Nc3ccc4c(n3)NC(=O)C(C)(C)O4)n2)cc(OC)c1OC,"5-hydroxytryptamine receptor 5A (HTR5A, Homo sapiens, UniProt P47898)",,,,,IC50,> 10 µM
COc1c(CCC[P+](c2ccccc2)(c2ccccc2)c2ccccc2)cc2c(c1OC)OCO2.[I-],SK-MEL-2,SRB,,,,LC50,-4.17 log M
C[C@@H](NC(=O)N1C(=O)[C@H](Cc2ccnc(N)c2)[C@H]1C(=O)O)C1CCCCC1,,,healthy adult Chinese volunteers,"continuous intravenous infusion, 0.3 mg/kg/h, 5-day infusion, CTCAE 5.0 grading",,incidence of AEs leading to death,0%
CC(C)(c1ccccc1)c1cc(-n2nc3ccccc3n2)c(O)c(C(C)(C)c2ccccc2)c1,,exposure assessment,"human, age 16-21 years",foundation,,mean daily dermal uptake,0.41 ng/kg body weight/day
O=C(c1ccc(F)c(F)c1Nc1ccc(I)cc1F)N1CC(O)([C@@H]2CCCCN2)C1,,,human patients,"oral, 1 mg/kg, age ≥18 years",,AE causing dose modification,100%
O=C1Nc2cc3[nH]nc(-c4ccncc4)c3cc2CN1Cc1ccccc1,,refers to: Dyspnea,patients with advanced solid tumours,"intravenous, dose not given, all schedules",,patients with TEAE,12%
CC[C@H](C)[C@@H]1NC(=O)[C@@H]2CCCN2C(=O)[C@H](CC(C)C)NC(=O)[C@H](CC(C)C)NC(=O)CNC(=O)[C@@H](NC(=O)[C@@H](NC(=O)[C@H](CC(=O)O)NC(=O)CNC(=O)[C@@H](NC(=O)[C@H](C)NC(=O)CNC(=O)[C@H](CCCCN)NC(=O)[C@H](CC(C)C)NC(=O)[C@H](CC(C)C)NC(=O)[C@H](CCCCN)NC(=O)CNC(=O)[C@@H](NC(=O)[C@@H](N)CC(C)C)C(C)C)C(C)C)C(C)C)CSSC[C@@H](C(=O)O)NC1=O,,"RNA-seq, refers to: Iigp1 mRNA","mouse traumatic brain injury, frontal cortex and hippocampus",dose not given,relative to: TBI plus compound vs TBI,log2 fold change,-1.68
CN(C(=O)n1cnc(-c2ccc[n+]([O-])c2)c1)C1CCCCC1,,,"Wistar rat, cerebral cortex","oral, 10 mg/kg/day, 72 h, repeated 5 days",,concentration,8.1 ± 2.1 ng/g
Cn1c(-c2ccc(C(N)=O)cc2F)nnc1C(C)(C)Oc1c(F)cc(Cl)cc1F,,,human,"oral, 6 mg, single ascending dose, incl. administration site",,general disorder TEAE,33.3%
C[C@H]1CN(c2n[nH]c3nc(N[C@H]4CC[C@H](NS(=O)(=O)CCC(F)(F)F)CC4)ncc23)CCO1,"Isoleucine--tRNA ligase, cytoplasmic (Homo sapiens, UniProt P41252)","Kinobeads competition, refers to: IARS",,"0.8 µM, unit not given",relative to: vehicle,remaining binding,1.06
